Results from different studies.
Lines come from different studies, so protocols differ. ± gives the spread as reported.

Structure (SMILES) = Nc1ncc(-c2cc(-c3cnn(CC(F)(F)F)c3)ncc2F)nc1C(=O)NC1CNCC(F)C1 (stereo not drawn); target or system = CSF1R-autoinhibited; test = KINOMEscan competition binding; setting = 1 µM; how to read = relative to: DMSO control; endpoint = remaining binding; value = 100%
Structure (SMILES) = O=C(N/N=C/c1ccc(C[n+]2ccccc2)cc1)c1cccc(C(=O)N/N=C/c2ccc(C[n+]3ccccc3)cc2)c1; target or system = telomeric G4 DNA hybrid-2; test = FRET melting; setting = 1 µM, DNA 0.2 µM; endpoint = ΔTm; value = 3.5 ± 1.3 °C
Structure (SMILES) = CN1CCCNC(=O)c2cccc(c2)C(=O)NCCCN(C)CCCNc2cccc3c2C(=O)c2cccc(c2C3=O)NCCC1; target or system = SAS; test = RNA-Seq, refers to: PREB mRNA; setting = 1 µM, 6 h; how to read = relative to: untreated cells; endpoint = log2 fold change; value = -0.573
Structure (SMILES) = C=C(NC(=O)c1csc(-c2nc3c(cc2O)-c2nc(cs2)C(=O)NC(C(C)O)C(=O)NC(=C(C)OC)c2nc(cs2)C(=O)NC2c4nc(cs4)C(=O)NC(COC(=O)c4c5c6c(cccc6n4O)COC(=O)C(OC4CC(C)(O)C(N(C)C)C(C)O4)C2OC5)c2nc-3cs2)n1)C(N)=O (stereo not drawn); target or system = Streptococcus pneumoniae; test system = -25, immunocompromised mice, lung infection, lung; setting = 8 mg/kg/day three times daily, 24 h post-dose; endpoint = bacterial load; value = 3.55 log CFU/g
Structure (SMILES) = O=S(=O)(NCc1ccncc1)c1ccc(C2CCCCC2)cc1; test = immunohistochemistry; test system = CK-p25 mice female, hippocampal pyramidal layer; setting = ip, 0.3 mg/kg daily, 6 wk; how to read = relative to: vehicle; endpoint = tubulin β3 staining; value = ~1.9 fold
Structure (SMILES) = CNS(=O)(=O)Nc1nccc(Cc2c(C)c3ccc(Oc4ncccc4F)cc3oc2=O)c1F; target or system = NCI-H838; test = cell viability; setting = 7 days; endpoint = IC50; value = > 1 µM
Structure (SMILES) = O=C(N/N=C/c1cc[n+](CC2CC2)c2ccccc12)c1ccc2ccc(C(=O)N/N=C/c3cc[n+](CC4CC4)c4ccccc34)nc2n1; target or system = telomeric G4 DNA hybrid-2; test = FRET melting; setting = 1 µM, DNA 0.2 µM, together with: duplex DNA competitor 10 µM; endpoint = ΔTm; value = 25 ± 1.3 °C
Structure (SMILES) = CC(=O)[O-].O.O.[O-]c1ccc(Br)cc1C=NCCN1CCOCC1.[Zn+2]; test = FRAP; setting = 160 µM; endpoint = ferric reducing power; value = 35.6%
Structure (SMILES) = C=CC(=O)N1[C@@H](c2ccc3c(c2)OCO3)c2[nH]c3ccccc3c2C[C@H]1C(=O)N1CCN(C)CC1; target or system = human cyclin E1 N112C-3xFLAG:CDK2; test = co-IP with TMT proteomics, refers to: TXN; setting = concentration not given, P10599; how to read = relative to: wild type DMSO; endpoint = relative co-enrichment; value = 69%
Structure (SMILES) = O=C(N/N=C/c1ccc(C[n+]2ccccc2)cc1)c1ccc2ccc(C(=O)N/N=C/c3ccc(C[n+]4ccccc4)cc3)nc2n1; target or system = telomeric G4 DNA hybrid-2; test = FRET melting; setting = 1 µM, DNA 0.2 µM; endpoint = ΔTm; value = 16.5 ± 0.4 °C
Structure (SMILES) = Cn1ncc2cc(-c3cncc(Cl)c3N3CCC4(CCNC4=O)CC3)ccc21; target or system = LS174T; test = gene expression, microarray, refers to: ACTG2 mRNA; setting = concentration not given, 24 h; how to read = relative to: untreated cells; endpoint = log2 fold change; value = 1.15
Structure (SMILES) = CC(C)(C)c1cc(-c2ccc3cccnc3n2)nc(-c2ccc3cccnc3n2)c1.COc1ccncc1.[Cl-].[Cl-].[Ru+2].c1ccc2cc3nc4c5cccnc5c5ncccc5c4nc3cc2c1; target or system = B16-F10; test = cell viability; setting = dark; endpoint = EC50; value = 29.2 ± 1.6 µM
Structure (SMILES) = O=C(N/N=C/c1cc[n+](Cc2ccccc2)c2ccccc12)c1cccc(C(=O)N/N=C/c2cc[n+](Cc3ccccc3)c3ccccc23)c1; target or system = telomeric G4 DNA hybrid-2; test = FRET melting; setting = 1 µM, DNA 0.2 µM; endpoint = ΔTm; value = 13.6 ± 1.3 °C
Structure (SMILES) = c1ccc(-c2n[nH]cc2-c2ccnc3ccccc23)nc1; target or system = SAT4 (Candida albicans); test = kinase binding, MIB/MS competition; test system = Candida albicans lysate; setting = 1 µM; how to read = relative to: DMSO; endpoint = log2 fold change; value = 0.11
Structure (SMILES) = Cc1ncsc1-c1ccc(C(C)NC(=O)C2CC(O)CN2C(=O)C(NC(=O)CCCCCCCCCCN2CCCC(Nc3ncc(Cl)c(Nc4ccccc4S(=O)(=O)C(C)C)n3)C2)C(C)(C)C)cc1 (stereo not drawn); target or system = 22Rv1; test = RNA-seq, refers to: MED22 mRNA; setting = concentration not given; how to read = relative to: DMSO; endpoint = log2 fold change; value = -1.17
Structure (SMILES) = CC[n+]1cccc2cc(/C=N/NC(=O)c3cc(C(=O)N/N=C/c4ccc5c(ccc[n+]5CC)c4)ncn3)ccc21; target or system = telomeric G4 DNA hybrid-2; test = FRET melting; setting = 1 µM, DNA 0.2 µM, together with: duplex DNA competitor 10 µM; endpoint = ΔTm; value = 3.9 ± 0.4 °C
Structure (SMILES) = N=C(N)NCCC[C@@H]1NC(=O)[C@H](CCCNC(=N)N)NC(=O)[C@@H](C(c2ccccc2)c2ccccc2)NC(=O)[C@H](Cc2c[nH]c3ccccc23)NC(=O)[C@@H](C(c2ccccc2)c2ccccc2)NC(=O)[C@@H](CCCNC(=N)N)NC(=O)[C@@H](CCCNC(=N)N)NC1=O; target or system = Aspergillus fumigatus; test system = Af 293; setting = MIC, 12 h; endpoint = reduction of viable cells; value = > 65%
Structure (SMILES) = CC(C)c1ccc(N(C)c2ccc3c(c2)OCC[C@H]3CNc2cnccc2C(=O)O)cc1; target or system = SCC-15; test = cell viability; setting = 7 days; endpoint = IC50; value = ≥ 10 µM
Structure (SMILES) = CC[n+]1cccc2cc(/C=N/NC(=O)c3cccc(C(=O)N/N=C/c4ccc5c(ccc[n+]5CC)c4)n3)ccc21; target or system = telomeric G4 DNA hybrid-2; test = FRET melting; setting = 1 µM, DNA 0.2 µM; endpoint = ΔTm; value = 21.5 ± 1.2 °C
Structure (SMILES) = COC1CN([C@H]2CC[C@H]([C@@]3(C)Oc4c(Cl)cc(C(=O)NCc5c(SC)cc(C)[nH]c5=O)c(C)c4O3)CC2)C1; test = RNA-seq, refers to: mouse PALM homolog; test system = mouse, HT-1376 xenograft, whole blood; setting = dose not given, PRC2 target gene; how to read = relative to: vehicle; endpoint = log2 fold change; value = 0.0512
Structure (SMILES) = O=C(N/N=C/c1cc[n+](CC2CC2)c2ccccc12)c1cccc(C(=O)N/N=C/c2cc[n+](CC3CC3)c3ccccc23)n1; target or system = telomeric G4 DNA hybrid-2; test = FRET melting; setting = 1 µM, DNA 0.2 µM; endpoint = ΔTm; value = 28.7 ± 0.7 °C
Structure (SMILES) = COc1cc(O)ccc1CCC(c1ccc(O)cc1)c1cc2c(c(C)c1O)OC(c1ccc(O)cc1)CC2 (mixture of isomers); test system = human blood; setting = 0.3 µM, together with: A23187; endpoint = LTB4 isomers level; value = 297 ± 112 pg/mL
Structure (SMILES) = O=C(N/N=C/c1cc[n+](CC2CC2)c2ccccc12)c1ccc2ccc3ccc(C(=O)N/N=C/c4cc[n+](CC5CC5)c5ccccc45)nc3c2n1; target or system = telomeric G4 DNA hybrid-2; test = FRET melting; setting = 1 µM, DNA 0.2 µM, together with: duplex DNA competitor 10 µM; endpoint = ΔTm; value = 29.4 ± 0.6 °C
Structure (SMILES) = C=CC(=O)Nc1cccc(Cn2ncc3cnc(Nc4cnn(CCOC)c4)nc32)c1; target or system = PRKX human; test = binding, KINOMEscan; setting = 100 nM; how to read = lower = stronger binding; endpoint = percent of control; value = 100%

Excerpt of the above:
Structure (SMILES) = CC[n+]1cccc2cc(/C=N/NC(=O)c3cccc(C(=O)N/N=C/c4ccc5c(ccc[n+]5CC)c4)n3)ccc21; target or system = telomeric G4 DNA hybrid-2; test = FRET melting; setting = 1 µM, DNA 0.2 µM; endpoint = ΔTm; value = 21.5 ± 1.2 °C
Structure (SMILES) = COC1CN([C@H]2CC[C@H]([C@@]3(C)Oc4c(Cl)cc(C(=O)NCc5c(SC)cc(C)[nH]c5=O)c(C)c4O3)CC2)C1; test = RNA-seq, refers to: mouse PALM homolog; test system = mouse, HT-1376 xenograft, whole blood; setting = dose not given, PRC2 target gene; how to read = relative to: vehicle; endpoint = log2 fold change; value = 0.0512
Structure (SMILES) = O=C(N/N=C/c1cc[n+](CC2CC2)c2ccccc12)c1cccc(C(=O)N/N=C/c2cc[n+](CC3CC3)c3ccccc23)n1; target or system = telomeric G4 DNA hybrid-2; test = FRET melting; setting = 1 µM, DNA 0.2 µM; endpoint = ΔTm; value = 28.7 ± 0.7 °C
